Experimental data pooled from the literature.
Lines come from different studies, so protocols differ. Several values in a cell are separate wells, animals, samples, runs or records. ± marks the error that the study gave.
PLEKHA4 PH domain: Pleckstrin homology domain-containing family A member 4, PH domain (PLEKHA4, Homo sapiens, UniProt Q9H4M7)
Chain of UniProt Q9H4M7 (whole entry, looked up): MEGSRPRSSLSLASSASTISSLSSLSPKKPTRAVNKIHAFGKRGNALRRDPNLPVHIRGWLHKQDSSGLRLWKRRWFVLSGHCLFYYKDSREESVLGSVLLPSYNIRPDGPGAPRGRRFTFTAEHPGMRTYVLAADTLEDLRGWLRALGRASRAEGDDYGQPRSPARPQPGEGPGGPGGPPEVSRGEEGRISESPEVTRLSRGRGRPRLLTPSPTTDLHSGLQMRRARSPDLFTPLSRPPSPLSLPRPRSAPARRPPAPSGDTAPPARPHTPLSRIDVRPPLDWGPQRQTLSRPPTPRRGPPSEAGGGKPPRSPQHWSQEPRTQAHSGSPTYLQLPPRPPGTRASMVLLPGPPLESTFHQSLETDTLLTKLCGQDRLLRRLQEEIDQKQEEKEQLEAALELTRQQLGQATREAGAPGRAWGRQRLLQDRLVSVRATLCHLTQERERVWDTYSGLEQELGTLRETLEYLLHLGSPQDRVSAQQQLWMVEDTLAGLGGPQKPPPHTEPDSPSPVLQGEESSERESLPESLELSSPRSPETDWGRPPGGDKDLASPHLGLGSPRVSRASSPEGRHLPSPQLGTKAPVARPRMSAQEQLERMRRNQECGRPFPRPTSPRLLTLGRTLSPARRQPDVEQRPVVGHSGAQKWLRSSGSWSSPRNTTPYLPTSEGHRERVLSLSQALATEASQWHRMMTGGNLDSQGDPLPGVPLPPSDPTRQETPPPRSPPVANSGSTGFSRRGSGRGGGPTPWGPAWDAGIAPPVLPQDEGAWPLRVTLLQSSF
Chain of UniProt P28566 (whole entry, looked up): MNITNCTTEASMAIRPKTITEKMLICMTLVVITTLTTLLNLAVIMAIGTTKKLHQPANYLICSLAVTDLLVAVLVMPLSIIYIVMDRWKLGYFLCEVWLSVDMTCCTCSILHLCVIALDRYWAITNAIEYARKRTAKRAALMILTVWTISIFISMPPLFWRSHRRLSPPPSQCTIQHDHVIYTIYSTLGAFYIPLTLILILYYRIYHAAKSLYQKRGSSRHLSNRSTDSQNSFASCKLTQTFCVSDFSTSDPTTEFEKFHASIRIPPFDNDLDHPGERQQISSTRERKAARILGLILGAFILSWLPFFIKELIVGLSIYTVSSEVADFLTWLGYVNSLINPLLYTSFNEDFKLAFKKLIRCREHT
Chain of UniProt Q9HCR9 (whole entry, looked up): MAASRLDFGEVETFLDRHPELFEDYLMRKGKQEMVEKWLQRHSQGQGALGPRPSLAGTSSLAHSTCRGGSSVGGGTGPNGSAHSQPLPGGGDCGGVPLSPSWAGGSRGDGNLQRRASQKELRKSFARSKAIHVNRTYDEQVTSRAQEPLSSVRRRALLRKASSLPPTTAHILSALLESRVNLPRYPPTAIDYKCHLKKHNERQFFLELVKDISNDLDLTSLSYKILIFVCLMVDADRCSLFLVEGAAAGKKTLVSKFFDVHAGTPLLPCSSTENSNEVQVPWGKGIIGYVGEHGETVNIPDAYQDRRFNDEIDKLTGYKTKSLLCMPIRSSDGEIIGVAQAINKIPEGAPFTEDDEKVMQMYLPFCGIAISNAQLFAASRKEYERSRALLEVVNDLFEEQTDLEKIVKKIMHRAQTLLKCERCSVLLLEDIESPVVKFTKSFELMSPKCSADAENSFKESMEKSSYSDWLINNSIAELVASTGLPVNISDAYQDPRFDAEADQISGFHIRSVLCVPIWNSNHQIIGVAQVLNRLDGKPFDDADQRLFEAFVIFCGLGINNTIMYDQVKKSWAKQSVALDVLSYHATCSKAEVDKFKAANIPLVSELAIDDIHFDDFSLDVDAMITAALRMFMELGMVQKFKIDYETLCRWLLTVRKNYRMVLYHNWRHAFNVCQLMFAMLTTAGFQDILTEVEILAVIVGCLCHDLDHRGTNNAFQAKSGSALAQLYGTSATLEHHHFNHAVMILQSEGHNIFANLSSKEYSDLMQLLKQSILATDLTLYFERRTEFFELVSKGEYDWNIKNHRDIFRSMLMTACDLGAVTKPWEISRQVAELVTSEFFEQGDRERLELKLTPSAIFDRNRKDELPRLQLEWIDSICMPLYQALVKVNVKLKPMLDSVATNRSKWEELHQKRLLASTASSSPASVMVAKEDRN
Chain of UniProt Q9R0C9 (whole entry, looked up): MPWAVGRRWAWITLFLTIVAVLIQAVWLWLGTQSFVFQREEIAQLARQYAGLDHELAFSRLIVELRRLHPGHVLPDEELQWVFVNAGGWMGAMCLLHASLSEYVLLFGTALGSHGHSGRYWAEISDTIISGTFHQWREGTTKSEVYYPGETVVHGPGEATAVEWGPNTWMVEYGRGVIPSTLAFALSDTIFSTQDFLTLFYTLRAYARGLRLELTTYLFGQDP
Chain of UniProt P07363 (whole entry, looked up): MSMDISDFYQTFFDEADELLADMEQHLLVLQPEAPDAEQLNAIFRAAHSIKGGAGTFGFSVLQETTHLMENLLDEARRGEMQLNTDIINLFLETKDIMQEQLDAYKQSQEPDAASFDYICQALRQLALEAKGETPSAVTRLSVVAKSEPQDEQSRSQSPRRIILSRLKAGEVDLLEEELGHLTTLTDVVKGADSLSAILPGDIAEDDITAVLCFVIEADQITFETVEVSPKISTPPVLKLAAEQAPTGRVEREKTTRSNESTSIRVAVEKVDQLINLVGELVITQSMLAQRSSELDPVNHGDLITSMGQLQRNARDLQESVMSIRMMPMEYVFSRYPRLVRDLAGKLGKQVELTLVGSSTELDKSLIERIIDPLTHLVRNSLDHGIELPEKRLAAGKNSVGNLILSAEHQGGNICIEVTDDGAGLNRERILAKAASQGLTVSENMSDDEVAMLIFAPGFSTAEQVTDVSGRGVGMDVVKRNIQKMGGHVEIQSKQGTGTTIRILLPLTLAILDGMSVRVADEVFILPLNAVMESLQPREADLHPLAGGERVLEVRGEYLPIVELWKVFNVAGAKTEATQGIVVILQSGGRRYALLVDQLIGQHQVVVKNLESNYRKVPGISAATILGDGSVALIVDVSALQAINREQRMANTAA
Chain of UniProt O95747 (whole entry, looked up): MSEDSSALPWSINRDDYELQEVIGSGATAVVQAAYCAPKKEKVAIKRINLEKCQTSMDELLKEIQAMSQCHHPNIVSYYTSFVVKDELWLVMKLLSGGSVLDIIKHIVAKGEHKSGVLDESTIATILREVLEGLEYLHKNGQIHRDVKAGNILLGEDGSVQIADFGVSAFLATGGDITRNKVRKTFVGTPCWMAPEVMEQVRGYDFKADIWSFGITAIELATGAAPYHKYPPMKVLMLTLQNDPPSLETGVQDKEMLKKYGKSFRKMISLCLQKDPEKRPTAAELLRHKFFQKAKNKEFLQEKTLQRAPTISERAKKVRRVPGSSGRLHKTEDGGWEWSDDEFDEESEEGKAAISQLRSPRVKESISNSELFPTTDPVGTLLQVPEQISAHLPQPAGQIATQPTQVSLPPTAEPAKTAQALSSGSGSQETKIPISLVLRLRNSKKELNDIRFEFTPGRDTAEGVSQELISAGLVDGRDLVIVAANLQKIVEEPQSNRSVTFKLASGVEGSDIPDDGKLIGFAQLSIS
Chain of UniProt Q6IQ20 (whole entry, looked up): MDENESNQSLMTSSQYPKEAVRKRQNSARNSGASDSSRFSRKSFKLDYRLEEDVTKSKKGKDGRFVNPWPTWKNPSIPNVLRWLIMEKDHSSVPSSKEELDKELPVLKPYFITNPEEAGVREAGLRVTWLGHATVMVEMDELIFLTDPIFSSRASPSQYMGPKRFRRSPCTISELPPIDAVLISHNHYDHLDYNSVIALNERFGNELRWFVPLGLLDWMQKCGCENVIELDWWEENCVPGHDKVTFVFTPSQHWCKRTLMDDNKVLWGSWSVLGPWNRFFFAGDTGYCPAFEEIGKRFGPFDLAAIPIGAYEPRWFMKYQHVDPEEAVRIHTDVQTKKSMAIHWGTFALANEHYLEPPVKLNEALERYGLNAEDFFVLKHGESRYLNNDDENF
Chain of UniProt Q15391 (whole entry, unmodified, looked up): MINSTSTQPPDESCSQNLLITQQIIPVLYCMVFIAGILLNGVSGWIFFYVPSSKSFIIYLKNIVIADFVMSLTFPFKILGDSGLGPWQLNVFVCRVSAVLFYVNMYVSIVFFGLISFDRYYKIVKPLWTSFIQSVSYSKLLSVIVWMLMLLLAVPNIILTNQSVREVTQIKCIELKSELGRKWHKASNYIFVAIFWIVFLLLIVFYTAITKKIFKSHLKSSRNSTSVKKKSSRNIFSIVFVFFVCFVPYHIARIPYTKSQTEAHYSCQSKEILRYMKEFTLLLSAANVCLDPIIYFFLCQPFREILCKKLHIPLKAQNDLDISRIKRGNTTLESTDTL
Chain of UniProt P13716 (whole entry, looked up): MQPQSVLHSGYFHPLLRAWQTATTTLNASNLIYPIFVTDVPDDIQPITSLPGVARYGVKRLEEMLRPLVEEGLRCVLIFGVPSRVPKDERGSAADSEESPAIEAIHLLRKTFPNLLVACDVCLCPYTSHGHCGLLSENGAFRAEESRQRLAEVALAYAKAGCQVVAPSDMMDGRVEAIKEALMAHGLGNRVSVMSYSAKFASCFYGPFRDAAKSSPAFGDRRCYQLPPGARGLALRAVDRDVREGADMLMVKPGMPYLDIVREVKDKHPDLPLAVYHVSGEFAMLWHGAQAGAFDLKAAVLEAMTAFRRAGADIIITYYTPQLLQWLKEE

Nc1ncnc2c1ncn2[C@@H]1O[C@H](COP(=O)(O)OP(=O)(O)CP(=O)(O)O)[C@@H](O)[C@H]1O — Ki (Chemotaxis protein CheA (Escherichia coli, UniProt P07363); kinase activity, inhibitor; CheA-CheW vesicle-assembled complexes, estimated): 877 µM
c1cc(CN2CCOCC2)cc(Nc2ncc(C3CC3)c(NCCc3c[nH]cn3)n2)c1 — number of kinases inhibited (16-kinase panel; radiometric; 1 µM, ATP at Km; below 10% of control): 6
CC(=O)N[C@H]1[C@H](O[C@H]2[C@H](O)[C@@H](NC(C)=O)C(O)O[C@@H]2CO)O[C@H](CO)[C@@H](O[C@@H]2O[C@H](CO)[C@@H](O[C@@H]3O[C@H](CO)[C@@H](O)[C@H](O)[C@H]3NC(C)=O)[C@H](O)[C@H]2NC(C)=O)[C@@H]1O (stereo partly shown) — Ki (LysM receptor-like kinase (Brachypodium distachyon, UniProt A0A0Q3FRN3); LCO binding, radioligand competition binding; membrane fractions): 0.0292 µM and 0.054 µM
C[C@]12CC[C@H](O)CC1=CC[C@@H]1[C@@H]2CC[C@]2(C)C(c3cccnc3)=CC[C@@H]12 — inhibition (THP-1; pyroptotic LDH release; 2 µM, 40 min, together with: LPS then nigericin): -33.4%
COc1cc2c(c(OC)c1OC)-c1c(cc3c(c1OC)OCO3)CC(C)C(C)C2 (stereo not shown) — Ki (CYP3A, rat; poziotinib metabolism to M2, inhibitor; rat liver microsomes; together with: poziotinib): 6.91 µM
NCc1[nH]cc(CCC(=O)O)c1CC(=O)O — Ki (Delta-aminolevulinic acid dehydratase (Homo sapiens, UniProt P13716); enzyme activity, inhibitor, 1H NMR; together with: aminolevulinic acid varied): 1800 µM
Cc1cccc(C(=O)O)c1O — inhibition (THP-1; pyroptotic LDH release; 2 µM, 40 min, together with: LPS then nigericin): 52.6%
CCOc1ccc(C(=O)CC(SCc2ccc(Br)cc2)C(=O)O)cc1 (stereo not shown) — Ki (PLEKHA4 PH domain; PLEKHA4 PI(4,5)P2 binding, fluorescence polarization; together with: BODIPY-PI(4,5)P2 tracer): 142 ± 23 µM
Cc1ccc([C@H]2C[C@@H]2COc2cc(NCc3nnc(C)s3)nc(C)n2)nc1 — Ki (PDE11A (Homo sapiens, UniProt Q9HCR9); enzyme activity, inhibitor, IMAP fluorescence polarization; isoform PDE11A4, together with: cAMP substrate): > 95.2 µM
C#CCNCc1ccc(C(=O)c2ccc([N+](=O)[O-])cc2)cc1 — Ki (Sigmar1 (Rattus norvegicus, UniProt Q9R0C9); binding, radioligand displacement; rat liver membranes; together with: [3H](+)-pentazocine 10 nM): 0.12 µM
CC[C@@H]1[C@H](F)C(=O)N[C@@H]1COc1nccc2cc(C(N)=O)c(OC)cc12 — IC50 (OXSR1 (Homo sapiens, UniProt O95747); ATP probe binding, KiNativ profiling, refers to: OSR1 Lys2 probe site; THP-1 cell lysate): > 5 µM
COc1cc2c(c(OC)c1OC)-c1c(cc(OC)c(OC)c1OC)C[C@H](C)[C@H](C)C2 — Ki (CYP3A, rat; poziotinib metabolism to M2, inhibitor; rat liver microsomes; together with: poziotinib): 37 µM
CCOc1ccc(-c2cc(C(=O)O)c(-c3ccc(Cl)cc3)o2)cc1 — Ki (PLEKHA4 PH domain; PLEKHA4 PI(4,5)P2 binding, fluorescence polarization; together with: BODIPY-PI(4,5)P2 tracer): 7.85 ± 0.59 µM
O=c1ccn([C@@H]2O[C@H](COP(=O)(O)OP(=O)(O)O[C@H]3O[C@H](CO)[C@@H](O)[C@H](O)[C@H]3O)[C@@H](O)[C@H]2O)c(=S)[nH]1 — Ki (P2Y purinoceptor 14 (P2RY14, Homo sapiens, UniProt Q15391, H184A)): > 3 µM
CCOc1cccc(C(=O)CC(SCc2cccc(Br)c2)C(=O)O)c1 (stereo not shown) — Ki (PLEKHA4 PH domain; PLEKHA4 PI(4,5)P2 binding, fluorescence polarization; together with: BODIPY-PI(4,5)P2 tracer): 32.3 ± 2.5 µM
NS(=O)(=O)c1ccc(CNc2nc(Nc3cccc(NC(=O)N4CCCC4)c3)ncc2Br)cc1 — number of kinases inhibited (16-kinase panel; radiometric; 1 µM, ATP at Km; below 10% of control): 4
CN1CCN2c3ncccc3Cc3ccccc3C2C1 (stereo not shown) — Ki (HTR1E (Homo sapiens, UniProt P28566); binding): 0.269 µM
CCOc1ccc(C(=O)CC(SCc2ccc(F)cc2)C(=O)O)cc1 (stereo not shown) — Ki (PLEKHA4 PH domain; PLEKHA4 PI(4,5)P2 binding, fluorescence polarization; together with: BODIPY-PI(4,5)P2 tracer): 144 ± 3 µM
O=c1[nH]c(=O)c2cc(S(=O)(=O)Nc3ccc(-c4ccncc4)cc3)ccc2[nH]1 — Ki (N-acyl-phosphatidylethanolamine-hydrolyzing phospholipase D (Homo sapiens, UniProt Q6IQ20)): 20.1 µM

Some of these lines once more:
CCOc1ccc(-c2cc(C(=O)O)c(-c3ccc(Cl)cc3)o2)cc1 — Ki (PLEKHA4 PH domain; PLEKHA4 PI(4,5)P2 binding, fluorescence polarization; together with: BODIPY-PI(4,5)P2 tracer): 7.85 ± 0.59 µM
